# Assay results pooled from the literature.
# Each line is one published result; not all experiments were run side by side. Values joined by “and” are separate records of one study, mostly repeats; a detail may differ. Numbers after ± are the reported error.
# B1: IκBα C308F; sequence looked up; chain MFQAAERPQEWAMEGPRDGLKKERLLDDRHDSGLDSMKDEEYEQMVKELQEIRLEPQEVPRGSEPWKQQLTEDGDSFLHLAIIHEEKALTMEVIRQVKGDLAFLNFQNNLQQTPLHLAVITNQPEIAEALLGAGCDPELRDFRGNTPLHLACEQGCLASVGVLTQSCTTPHLHSILKATNYNGHTCLHLASIHGYLGIVELLVSLGADVNAQEPCNGRTALHLAVDLQNPDLVSLLLKCGADVNRVTYQGYSPYQLTWGRPSTRIQQQLGQLTLENLQMLPESEDEESYDTESEFTEFTEDELPYDDFVFGGQRLTL
Substance,target or system,test,system,conditions,how to read,endpoint,value
nivolumab,CMV-specific PBMC,FluoroSpot,,"concentration not given, added: NLVPMVATV peptide restimulation",reference: control without ATP,granzyme B spot count,97.9% and 117% and 114%
HPDMFTRTHSHN,CCA-156,multimer binding,peptide,"150 µM, 30 min, 4 °C, unlabelled competitor, added: 5 µM Cy5.5-labelled multimer",,fluorescence signal,decreased
PFVYLIRFHRFHRFHGGGSSSQLSRP,epithelial cells,"siRNA delivery, flow cytometry",peptide,"concentration not given, 6 h, peptide-siRNA nanoparticles, added: Cy5-siRNA",,transfection efficiency,85%
ALFQWISGA,Jurkat T cells expressing 1G4 TCR,"NFAT-eGFP reporter, fluorescence microscopy",peptide,"concentration not given, HLA-A*02:01 NY-ESO system",,reporter activation,0.0111%
B1 (IκBα C308F),"IκBα/IκBβ/IκBε knockout MEF, retro-transduced IκBα",Western blot,,"concentration not given, 0 (unit not given), added: TNFα 20 ng/mL",reference: time zero,IκBα protein level,100%
NPDALPETLV,human MAGI1-3/6 PDZ construct (MBP fusion),automated holdup,"peptide, purified PDZ protein","concentration not given, unit not given","reference: biotin control resin, higher = stronger binding",binding intensity,0.637
alsterpaullone,HeLa expressing Ub(G76V)-GFP,"Ub(G76V)-GFP degradation, inhibitor, cycloheximide chase",,12 µM,,inhibition,25%
vecabrutinib,HEK-293T ATF4-FLuc reporter,"reporter gene, activator, qHTS",,,,EC50,6.04 µM
SLLEWVTQV,Jurkat T cells expressing 1G4 TCR,"NFAT-eGFP reporter, fluorescence microscopy",peptide,"concentration not given, HLA-A*02:01 NY-ESO system",,reporter activation,0.011%
KMTMR,THP-1,Western blot,peptide,"1.0 µM, 3 days, unit not given, added: WNT3A",reference: WNT3A alone,active β-catenin level,1.2
MTVCNASQRQAHAQATAVSL,A549,phage binding,peptide,,reference: targeting over control phage,selectivity ratio,21 ± 2.7
Peginesatide,UT7/EPO,"tyrosine phosphorylation, LC-MS/MS phosphoproteomics, GluC, measured: VAV1 tyrosine 844",,"10 nM, 15 min, added: 10 U/mL EPO",reference: vehicle,phosphorylation level,3.7 fold
"Ac-LRKLRKRLLRDWLKAFYDKVAEKLKEAF-NH2 (N-acetyl, C-amide)",[3H]-cholesterol-loaded THP-1-derived macrophages,,peptide,50 µg/mL,reference: control,maximal cholesterol efflux stimulation,40%
SLLEWISQV,Jurkat T cells expressing 1G4 TCR,"NFAT-eGFP reporter, fluorescence microscopy",peptide,"concentration not given, HLA-A*02:01 NY-ESO system",,reporter activation,0.0416%
KQWLVWLFL,Jurkat TCR CD8+ with T2 cells,"IL-2 release, agonist",peptide,"18 to 20 h, 37 °C",reference: peptide over wild-type peptide,EC50 fold difference,≥ 200 fold
epoetin alfa,UT7/EPO,"microarray, measured: CISH (probe 221223_x_at)",,"5 U/mL, 90 min, added: SCF 10 nM",reference: vehicle,mRNA level,5.4 fold
evodiamine,K562,cell proliferation,,,,IC50,1.34 ± 0.42 µM
TLFEWVPQL,Jurkat T cells expressing 1G4 TCR,"NFAT-eGFP reporter, fluorescence microscopy",peptide,"concentration not given, HLA-A*02:01 NY-ESO system",,reporter activation,0.0101%
maraviroc,HBMEC,"gene expression, qPCR",,"concentration not given, 24 h, added: HIV infection","reference: HIV-infected cells, decrease",mRNA level,15.3 fold
ALLQWVSTV,Jurkat T cells expressing 1G4 TCR,"NFAT-eGFP reporter, fluorescence microscopy",peptide,"concentration not given, HLA-A*02:01 NY-ESO system",,reporter activation,0.00549%
KPGKGSETVV,human MAGI1-3/6 PDZ construct (MBP fusion),automated holdup,"peptide, crude extract","concentration not given, uncorrected, unit not given","reference: biotin control resin, higher = stronger binding",binding intensity,0.0963
GLGQWIAQA,Jurkat T cells expressing 1G4 TCR,"NFAT-eGFP reporter, fluorescence microscopy",peptide,"concentration not given, HLA-A*02:01 NY-ESO system",,reporter activation,0.0194%
monensin sodium,MCF-10A,CellTiter-Glo,,"concentration not given, replicate A",reference: normalised luminescence,viability,83.4%
GLAQWLGHV,Jurkat T cells expressing 1G4 TCR,"NFAT-eGFP reporter, flow cytometry",peptide,"concentration not given, HLA-A*02:01 NY-ESO system",,reporter activation,0.13%
"bis(2,4-dimethylpyridine)dichloroplatinum(II)",A549,"cell viability, MTT",,24 h,,IC50,10.4 µM
ALLQWTDQV,Jurkat T cells expressing 1G4 TCR,"NFAT-eGFP reporter, flow cytometry",peptide,"concentration not given, HLA-A*02:01 NY-ESO system",,reporter activation,20.7%
apatinib,HEK-293T ATF4-FLuc reporter,"reporter gene, activator, qHTS",,,,EC50,8.95 µM

# Some of these lines once more:
Substance,target or system,test,system,conditions,how to read,endpoint,value
SLLEWISQV,Jurkat T cells expressing 1G4 TCR,"NFAT-eGFP reporter, fluorescence microscopy",peptide,"concentration not given, HLA-A*02:01 NY-ESO system",,reporter activation,0.0416%
Peginesatide,UT7/EPO,"tyrosine phosphorylation, LC-MS/MS phosphoproteomics, GluC, measured: VAV1 tyrosine 844",,"10 nM, 15 min, added: 10 U/mL EPO",reference: vehicle,phosphorylation level,3.7 fold
KMTMR,THP-1,Western blot,peptide,"1.0 µM, 3 days, unit not given, added: WNT3A",reference: WNT3A alone,active β-catenin level,1.2
